{"data": "Measured values gathered from unrelated publications", "organism": "herpes simplex virus 1"}
{"SMILES": "O=C1/C(=N\\NC(=S)NN=Cc2cccs2)c2ccccc2N1Cc1ccccc1", "test": "viral cytopathogenicity", "system": "HEL, KOS TK-deficient acyclovir-resistant", "quantity": "EC50", "value": "> 20 µM"}
{"SMILES": "CCCCCCCCCC(=O)OCC1OC(n2cc(C)c(=O)[nH]c2=O)CC1N(C)C (centres unmarked)", "test": "viral replication", "system": "HEL, TK- KOS ACV-resistant", "quantity": "EC50", "value": "> 0.23 µM"}
{"SMILES": "O=C(Cc1csc2nc(-c3ccc(Br)cc3)cn12)NN=C1CCCC1", "test": "viral cytopathicity, microscopy", "system": "HEL, acyclovir-resistant", "quantity": "EC50", "value": "> 100 µg/mL"}
{"SMILES": "CCOC(=O)[C@@H](C)NP(=O)(CO[C@H](CF)Cn1cnc(N)nc1=O)N[C@H](C)C(=O)OCC", "test": "cytopathic effect", "system": "HEL, KOS, TK-deficient, acyclovir-resistant", "quantity": "EC50", "value": "> 100 µM"}
{"SMILES": "CCCCCCC(CC=CCCCCCCCC(=O)OCCOCn1cnc2c(=O)[nH]c(N)nc21)OC(=O)CCCCC1SCC2NC(=O)NC21 (centres unmarked)", "test": "viral replication, plaque reduction", "system": "HFF, E-377", "quantity": "EC90", "value": "21.9 µM"}
{"SMILES": "Cc1cn(C2CC(N(C)C)C(CO)O2)c(=O)[nH]c1=O (centres unmarked)", "test": "viral replication", "system": "HEL, TK- KOS ACV-resistant", "quantity": "EC50", "value": "> 0.37 µM"}
{"SMILES": "NCCCCCO[C@H]1O[C@H](COS(=O)(=O)O)[C@@H](O[C@@H]2O[C@@H](C(=O)O)[C@@H](O[C@H]3O[C@H](COS(=O)(=O)O)[C@@H](O[C@@H]4O[C@@H](C(=O)O)[C@@H](O[C@H]5O[C@H](COS(=O)(=O)O)[C@@H](O[C@@H]6O[C@@H](C(=O)O)[C@@H](O)[C@H](O)[C@H]6OS(=O)(=O)O)[C@H](O)[C@H]5NS(=O)(=O)O)[C@H](O)[C@H]4OS(=O)(=O)O)[C@H](O)[C@H]3NS(=O)(=O)O)[C@H](O)[C@H]2OS(=O)(=O)O)[C@H](O)[C@H]1NS(=O)(=O)O", "test": "viral spread", "system": "human corneal epithelial cells, GFP reporter", "setting": "24 h, added 2 h post infection", "quantity": "IC50", "value": "55 µg/mL"}
{"SMILES": "CCOC(=O)[C@@H](C)NP(=O)(CO[C@H](CF)CN1CNC(N)=NC1=O)N[C@H](C)C(=O)OCC", "test": "cytopathic effect", "system": "HEL, KOS, TK-deficient, acyclovir-resistant", "quantity": "EC50", "value": "> 100 µM"}
{"SMILES": "CC(C)OC(=O)[C@H](Cc1ccccc1)NP(=O)(COCCn1cnc2c(=O)[nH]c(=O)[nH]c21)N[C@@H](Cc1ccccc1)C(=O)OC(C)C", "test": "cytopathic effect", "system": "HEL, KOS TK- acyclovir-resistant", "quantity": "EC50", "value": "> 100 µM"}
{"SMILES": "Cc1cc(O)c(=O)c(O)c(O)c1C(=O)c1ccc(-c2ccccc2)cc1", "test": "viral replication", "quantity": "EC50", "value": "~0.05 µM"}
{"SMILES": "NCCCCCO[C@H]1O[C@H](COS(=O)(=O)O)[C@@H](O[C@@H]2O[C@@H](C(=O)O)[C@@H](O[C@H]3O[C@H](COS(=O)(=O)O)[C@@H](O[C@@H]4O[C@@H](C(=O)O)[C@@H](O[C@H]5O[C@H](COS(=O)(=O)O)[C@@H](O[C@@H]6O[C@@H](C(=O)O)[C@@H](O[C@H]7O[C@H](COS(=O)(=O)O)[C@@H](O[C@@H]8O[C@@H](C(=O)O)[C@@H](O)[C@H](O)[C@H]8OS(=O)(=O)O)[C@H](O)[C@H]7NS(=O)(=O)O)[C@H](O)[C@H]6OS(=O)(=O)O)[C@H](O)[C@H]5NS(=O)(=O)O)[C@H](O)[C@H]4OS(=O)(=O)O)[C@H](O)[C@H]3NS(=O)(=O)O)[C@H](O)[C@H]2OS(=O)(=O)O)[C@H](O)[C@H]1NS(=O)(=O)O", "test": "viral spread", "system": "human corneal epithelial cells, GFP reporter", "setting": "24 h, added 2 h post infection", "quantity": "IC50", "value": "42 µg/mL"}
{"note": "Repeated from above:"}
{"SMILES": "Cc1cn(C2CC(N(C)C)C(CO)O2)c(=O)[nH]c1=O (centres unmarked)", "test": "viral replication", "system": "HEL, TK- KOS ACV-resistant", "quantity": "EC50", "value": "> 0.37 µM"}
